Measured values collected from several papers.
Each line is one published result; not all experiments were run side by side. ± gives the spread as reported.
SIGMAR1: Sigma non-opioid intracellular receptor 1 (SIGMAR1, Cavia porcellus, UniProt Q60492)
Oprd1: Delta-type opioid receptor (Oprd1, Mus musculus, UniProt P32300)
OPRL1: Nociceptin receptor (OPRL1, Homo sapiens, UniProt P41146)

SMILES = Nc1ccn([C@H]2C[C@H](O)[C@@H](COP(=O)(O)NP(=O)(O)OP(=O)(O)O)O2)c(=O)n1; target = Deoxynucleoside triphosphate triphosphohydrolase SAMHD1 (SAMHD1, Homo sapiens, UniProt Q9Y3Z3); test = enzyme activity, inhibitor; conditions = with: dTTP 100 µM; Ki = 0.045 ± 0.0053 µM
SMILES = c1ccc(CCN2CCCCC2)cc1; target = Sigma intracellular receptor 2 (Tmem97, Rattus norvegicus, UniProt Q5U3Y7); test = ligand displacement, radioligand; Ki = 0.138 µM
SMILES = COc1cc2c(cc1OCCCF)CCN1CC(CC(C)C)C(C3CO3)CC21 (single isomer, unassigned; (+)); target = Synaptic vesicular amine transporter (Slc18a2, Rattus norvegicus, UniProt Q01827); test = binding; system = rat striatal homogenate; conditions = with: [3H](±)-tetrabenazine; Ki = 8e-05 ± 1e-05 µM
SMILES = CC[C@H](C)CCCCC(=O)N[C@@H](CCN)C(=O)N[C@H](C(=O)N[C@@H](CCN)C(=O)N[C@H]1CCNC(=O)[C@H]([C@@H](C)O)NC(=O)[C@H](CCN)NC(=O)[C@H](CCN)NC(=O)[C@H](CC(C)C)NC(=O)[C@@H](CC(C)C)NC(=O)[C@H](CCN)NC1=O)[C@@H](C)O; target = lipopolysaccharide; test = binding, displacement; system = Salmonella enterica; Ki = 0.6 ± 0.1 µM
SMILES = CCCSC[C@H]1O[C@@H](n2cnc3c2N=CNC[C@H]3O)C[C@@H]1O; target = MTA/SAH deaminase (Pseudomonas aeruginosa, UniProt Q9HZ64); test = inhibitor; conditions = pH 7.4, 25 °C, with: MTA 100 µM; Ki = 6.7e-05 ± 5e-06 µM
SMILES = Nc1ccccc1C(=O)O; target = mushroom tyrosinase; test = monophenolase activity, inhibitor; conditions = pH 6.8, 20 °C, with: p-coumaric acid substrate; Ki = 5.15 µM
SMILES = CCCCCCCCCCCCCCCCCCN; target = SIGMAR1; test = ligand displacement, radioligand; Ki = 8.5 µM
SMILES = CN(C(=O)/C=C/c1ccoc1)[C@H]1CC[C@@]2(O)[C@H]3Cc4cccc5c4[C@@]2(CCN3CC2CC2)[C@H]1O5; target = Oprd1; test = binding, radioligand displacement; conditions = with: [3H]diprenorphine; Ki = 0.116 ± 0.024 µM
SMILES = C[C@]1(C(=O)O)C[C@H]1[C@H](N)C(=O)O.Cl; target = kainate receptor, rat; test = [3H]kainate displacement; system = cortical synaptosomes; Ki = 0.11 µM
SMILES = C[C@H]1CN(C[C@H]2Cc3ccc(O)cc3CN2)CC[C@@]1(C)c1cccc(O)c1; target = OPRL1; test = ligand displacement, radioligand; Ki = > 10 µM
SMILES = C[C@]12CC[C@H](O)C[C@@]1(O)CC[C@@H]1[C@@H]2CC[C@]2(C)[C@@H](c3ccc(=O)oc3)C[C@H]3O[C@]132; target = Sodium/potassium-transporting ATPase subunit alpha-1 (ATP1A1, Homo sapiens, UniProt P05023); test = enzyme activity; system = purified human kidney enzyme; conditions = 1% DMSO; Ki = 1.04 ± 0.06 µM
SMILES = O=C(/C=C/c1ccoc1)N[C@H]1CC[C@@]2(O)[C@H]3Cc4ccc(O)c5c4[C@@]2(CCN3CC2CC2)[C@H]1O5; target = Mu-type opioid receptor (Oprm1, Mus musculus, UniProt P42866); test = ligand displacement, radioligand; Ki = 0.00123 µM
SMILES = O=C(O)C[C@H]1CCN[C@@H]1C(=O)O; target = Glutamate receptor ionotropic, kainate 2 (Grik2, Rattus norvegicus, UniProt P42260); test = binding, radioligand displacement; system = Sf9 cells expressing homomeric receptor; conditions = with: [3H]kainate; Ki = 2.2 µM
SMILES = Nc1nc(F)nc2c1ncn2[C@@H]1O[C@H](CO)[C@@H](O)[C@@H]1O; target = Adenosine receptor A2a (ADORA2A, Homo sapiens, UniProt P29274); test = ligand displacement, radioligand; conditions = cell membranes; Ki = > 100 µM
SMILES = Oc1ccc2c(c1O)C[C@@H](c1ccccc1)[C@@H]1CCNC[C@@H]21; target = other brain receptors of panel; test = binding, PDSP radioligand screen; Ki = > 1 µM
SMILES = CC(C)[C@@H](CN1CCC(c2cccc(O)c2)CC1)NC(=O)[C@H]1Cc2ccccc2CN1; target = OPRL1; test = ligand displacement, radioligand; Ki = 0.0484 µM
SMILES = O=C(O)C1CCC1; target = putA, PRODH domain (Escherichia coli, UniProt P09546); test = competitive inhibitor; conditions = pH 7.5, room temperature, with: L-proline; Ki = 1900 ± 200 µM
SMILES = CN(C)CCN(C)CCc1ccc(Cl)c(Cl)c1; target = SIGMAR1; test = ligand displacement, radioligand; Ki = 0.00313 µM
SMILES = CC(=O)P(=O)(O)OCc1ccccc1; target = porcine pyruvate dehydrogenase; test = competitive inhibitor; conditions = 30 °C, with: pyruvate; Ki = 882 ± 78 µM
SMILES = Cc1cc(N(C)CCN(C)C)cc(C)c1OCC(=O)N[C@@H](Cc1ccccc1)[C@H](O)C(=O)N1CSC(C)(C)[C@H]1C(=O)N[C@H]1c2ccccc2C[C@H]1O; target = Plasmepsin I (PMI, Plasmodium falciparum, UniProt P39898); test = enzyme activity, inhibitor, fluorescence; conditions = pH 5; Ki = 0.0126 µM
SMILES = O=C(O)[C@H]1NC[C@@H]2C(O)=NO[C@@H]21; target = Excitatory amino acid transporter 3 (Slc1a1, Rattus norvegicus, UniProt P51907); test = anion current, inhibitor, whole-cell patch clamp; system = HEK-293T; conditions = homo-exchange mode, with: glutamate 20 µM; Ki = 19 ± 3.3 µM
SMILES = CC(C)=CCC12OC1(O)C(=O)c1c(O)cccc1C2=O (centres unmarked); target = Tyrosyl-DNA phosphodiesterase 1 (TDP1, Homo sapiens, UniProt Q9NUW8); test = mixed noncompetitive inhibitor; conditions = enzyme-substrate complex; Ki = 9.95 ± 1.14 µM
SMILES = CN1CCN(CCc2ccc(Cl)c(Cl)c2)CC1; target = SIGMAR1; test = ligand displacement, radioligand; Ki = 0.00881 µM
SMILES = CONc1ccn([C@@H]2O[C@H](COP(=O)(O)OP(=O)(O)OP(=O)(O)OC[C@H]3O[C@@H](n4ccc(=O)[nH]c4=O)[C@@H](O)[C@H]3O)[C@H](O)[C@@H]2O)c(=O)n1; target = P2Y purinoceptor 14 (P2RY14, Homo sapiens, UniProt Q15391); test = ligand displacement; Ki = 5.18 µM
SMILES = O=C(O)CP(=O)(O)O; target = pyruvate carboxylase Rhizobium etli; test = noncompetitive inhibitor; conditions = with: MgATP; Ki = 2600 ± 300 µM
SMILES = CCCCN1C(=O)C(C=CC=CC=C2C(=O)N(c3ccc(S(=O)(=O)O)cc3)N=C2C)C(=O)N(CCCC)C1=O; target = SLC4A1 (Homo sapiens, UniProt P02730); test = chloride exchange, 36Cl flux, measured: inward-facing unloaded transporter; conditions = 0 °C, Dixon plot, initial binding; Ki = 1.6 ± 0.4 µM
SMILES = NC(=O)CCC(N)C(=O)O (stereo in doubt); target = anandamide membrane transporter rat; test = [3H]anandamide uptake, non-competitive inhibitor; system = brain synaptosomes; Ki = 0.43 ± 0.045 µM
SMILES = N=C(N)NCCC[C@H](NC(=O)[C@H](Cc1c[nH]c2ccccc12)NC(=O)[C@H](CCCCN)NC(=O)CNC(=O)CCC(=O)N/N=C/c1ccc(/C=N/NC(=O)CCC(=O)NCC(=O)N[C@@H](CCCCN)C(=O)N[C@@H](Cc2c[nH]c3ccccc23)C(=O)N[C@@H](CCCCNC(=O)c2ccc(C(=O)NC(=N)N)[nH]2)C(N)=O)cc1)C(N)=O; target = Tryptase beta-2 (TPSB2, Homo sapiens, UniProt P20231); test = non-competitive inhibitor; Ki = 0.121 µM
SMILES = O=[As](O)(O)O; target = Triosephosphate isomerase, glycosomal (Trypanosoma brucei brucei, UniProt P04789, I172A); test = inhibitor; conditions = pH 7.5, 25 °C, ionic strength 0.1, with: DHAP substrate; Ki = 8600 µM
SMILES = CCCN(CCC1(O)CC(NS(=O)(=O)c2ccc(F)c(Cl)c2)C1)[C@H]1CCc2nc(N)sc2C1 (stereo in doubt); target = dopamine D1-like receptor, rat; test = radioligand binding; system = rat striatal membranes; conditions = with: [3H]SCH23390; Ki = 41.9 ± 2.76 µM
SMILES = CCCCCCCCCCCCCCC[C@@H](O)[C@@H](N)CO; target = SIGMAR1; test = ligand displacement, radioligand; conditions = cell membranes; Ki = 35 µM
SMILES = O=C(/C=C/c1ccoc1)N[C@@H]1CC[C@@]2(O)[C@H]3Cc4cccc5c4[C@@]2(CCN3CC2CC2)[C@H]1O5; target = Oprd1; test = binding, radioligand displacement; conditions = with: [3H]diprenorphine; Ki = 0.34 ± 0.096 µM
SMILES = O=C(O)c1cc(NS(=O)(=O)c2ccccn2)cc([C@H]2CCN[C@@H]2C(=O)O)c1 (racemic); target = Glutamate receptor ionotropic, kainate 1 (Rattus norvegicus, UniProt P22756); test = ligand displacement, radioligand; conditions = cell membranes; Ki = 27.6 µM
SMILES = Nc1nc2c(c(=O)[nH]1)N1CN(c3ccc(C(=O)N[C@@H](CCC(=O)O)C(=O)O)cc3)CC1CN2 (some centres unmarked); target = Thymidylate synthase (Escherichia coli K-12, UniProt P0A884); test = substrate inhibition, noncompetitive kinetic isotope effect; conditions = pH 7.5, 25 °C, MgCl2 50 mM, with: dUMP 100 µM; Ki = 760 ± 70 µM
SMILES = COP(=O)(O)C(C)=O; target = 1-deoxy-D-xylulose-5-phosphate synthase (dxs, Escherichia coli, UniProt P77488, H49A); test = enzyme activity, inhibitor; conditions = with: D-GAP 500 µM, pyruvate 2 mM; Ki = 125 µM
SMILES = O=C(O)c1cccc(Cc2ccc(F)cc2)c1; target = Envelope glycoprotein gp160, gp41 hydrophobic pocket (env, Human immunodeficiency virus type 1 group M subtype B, UniProt P04578); system = HIV-1; Ki = 550 ± 50 µM
SMILES = CC[C@H](C)CN(C[C@@H](O)[C@H](Cc1ccccc1)NC(=O)[C@@H](NC(C)=O)[C@@H](C)CC)S(=O)(=O)c1ccc2ncsc2c1; target = Gag-Pol polyprotein, protease (Human immunodeficiency virus type 1 group M subtype B, UniProt P03369, A561V/G563S/I574V/L500I/L580M); Ki = 4.8e-05 ± 2.2e-05 µM
SMILES = CC1(C)Oc2cc(CNC3C4CC5CC(C4)CC3C5)cc(O)c2[C@@H]2C[C@@H](O)CC[C@H]21 (some centres unmarked); target = Cannabinoid receptor 1 (Cnr1, Rattus norvegicus, UniProt P20272); Ki = no binding
SMILES = O=P(O)(O)Oc1ccccc1OP(=O)(O)O; target = Signal transducer and activator of transcription 5A, SH2 (Homo sapiens, UniProt P42229); test = ligand displacement, FP; Ki = 34 µM
SMILES = CCCCCCCC(=O)O[C@H]1/C(=C/C(=O)OC)C[C@H]2C[C@H]([C@@H](C)O)OC(=O)CCCC(=O)OCC(C)(C)[C@]1(O)O2; target = Protein kinase C beta type, isoform beta-I (PRKCB, Homo sapiens, UniProt P05771); test = binding, radioligand competition; conditions = with: [3H]PDBu; Ki = 0.184 µM
SMILES = CCCCC[C@H](O)/C=C/[C@H]1CCC(=O)[C@@H]1CCCCCCC(=O)O; target = Prostaglandin E2 receptor EP4 subtype (Ptger4, Rattus norvegicus, UniProt P43114); test = ligand displacement, radioligand; Ki = 0.00021 µM
